Measurements pooled from the literature.
± marks the error that the study gave.

SMILES | target or system | assay | system | conditions | how to read | endpoint | result
CC(C)[C@H](NC(=O)[C@@H]1CCCN1C(=O)[C@H](CCCNC(=N)N)NC(=O)[C@H](CS)NC(=O)[C@H](Cc1c[nH]c2ccccc12)NC(=O)[C@H](CCCNC(=N)N)NC(=O)[C@@H](Cc1ccccc1)NC(=O)[C@H](Cc1c[nH]cn1)NC(=O)[C@H](CCC(=O)O)NC(=O)[C@H](CS)NC(=O)[C@H](CS)NC(=O)[C@H](CCCCN)NC(=O)[C@@H]1CC(=O)N[C@@H](CCCNC(=N)N)C(=O)N[C@@H](C)C(=O)N[C@@H](CC(=O)O)C(=O)N[C@H](Cc2ccc(O)cc2)C(=O)N1)C(N)=O [technetium-99m labelled] | – | – | C57 mice, spleen | intravenous, 0.037 MBq, 0.5 h | – | tissue uptake | 1.54 ± 0.41 %ID/g
Cc1ccc2cc(-c3ccccc3)[nH]c2c1 | RAW264.7 | NO release, inhibitor, Griess | – | 50 µM, 20 h, LPS-stimulated | – | inhibition | 45.1%
Cc1ccc(NC(=O)c2ccc(CN3CCN(C)CC3)cc2)cc1Nc1nccc(-c2cncc(-c3oncc3C)c2)n1 | – | – | mild-to-moderate Parkinson's disease patients | oral, 50 mg once daily, pre-dose baseline, on anti-Parkinson medication | direction not given | MDS-UPDRS part II score | 11.2 ± 5
CO/N=C1\C[C@]2(C[C@@H]3C[C@@H](C/C=C(\C)C[C@@H](C)/C=C/C=C4\CO[C@@H]5[C@H](O)C(C)=C[C@@H](C(=O)O3)[C@]45O)O2)O[C@H](/C(C)=C/C(C)C)[C@H]1C | Haemonchus contortus | – | multidrug resistant, sheep | subcutaneous, 0.2 mg/kg, day 2 post-treatment, together with: closantel 5 mg/kg | – | faecal egg count reduction | 97%
NNC(=O)Cn1cc(COc2ccccc2-c2nc(-c3ccccc3)no2)nn1 | A549 | qPCR, measured: mTOR | – | IC50, 24 h | baseline: untreated cancer cells | mRNA level | 0.28 ± 0.009 fold
CCCCCc1ccc(-c2cc3ccccc3[nH]2)cc1 | RAW264.7 | sulforhodamine B | – | 50 µM, 20 h | baseline: vehicle | viability | 132 ± 12.6%
CC(C)C[C@H](NC(=O)[C@H](CO)NC(=O)[C@H](CCCNC(=N)N)NC(=O)[C@H](CC(=O)O)NC(=O)[C@H](CCC(=O)O)NC(=O)[C@H](C)NC(=O)[C@@H]1CCCN1C(=O)[C@H](C)NC(=O)[C@H](CCC(=O)O)NC(=O)[C@@H]1CCCN1C(=O)[C@@H]1CCCN1)C(N)=O | – | HPLC-EC | rat F344, unilateral 6-OHDA lesion, ipsilateral striatum | intranasal, 300 µg daily, 5 weeks post lesion | – | DOPAC level | 58 ± 46 ng/g
CS(=O)(=O)c1ccc(-c2cnc(N)c(-c3ccc(C(F)(F)F)nc3)c2)cc1 | Plasmodium cynomolgi | hypnozoite development | primary rhesus hepatocytes | day 0, added at 3 h | – | IC50 | 61 nM
O=C(Cn1cc(COc2ccccc2-c2nc(Cc3ccccc3)no2)nn1)NNC(=S)Nc1ccccc1 | Caco-2 | qPCR, measured: PI3K | – | IC50, 24 h | baseline: untreated cancer cells | mRNA level | 0.53 ± 0.0004 fold

Excerpt of the above:
SMILES | target or system | assay | system | conditions | how to read | endpoint | result
CCCCCc1ccc(-c2cc3ccccc3[nH]2)cc1 | RAW264.7 | sulforhodamine B | – | 50 µM, 20 h | baseline: vehicle | viability | 132 ± 12.6%
